{"data": "Experimental data from different studies", "note": "Lines come from different studies, so protocols differ. ± marks the error that the study gave."}
{"Molecule": "CCN1CCN(C(=O)N[C@@H](C(=O)N[C@@H]2C(=O)N3C(C(=O)O)=C(CSc4nnnn4C)CS[C@H]23)c2ccc(O)cc2)C(=O)C1=O", "target": "Neisseria gonorrhoeae PBP2 H041", "setting": "1 h, pH 8.0, room temperature, together with: Bocillin-FL competitor", "endpoint": "acylation rate constant k2/Ks", "result": "11800 ± 1300 M⁻¹ s⁻¹"}
{"Molecule": "KFNHWFG", "target": "adeno-associated virus 2", "test": "capsid binding, bind-and-elute chromatography", "system": "peptide", "setting": "peptide ligand resin, MgCl2 elution", "endpoint": "recovery yield", "result": "45%"}
{"Molecule": "CN[C@H](CC(C)C)C(=O)N[C@H]1C(=O)N[C@@H](CC(N)=O)C(=O)N[C@H]2C(=O)N[C@H]3C(=O)N[C@H](C(=O)N[C@H](C(=O)O)c4cc(O)cc(O)c4-c4cc3ccc4O)[C@H](O)c3ccc(c(Cl)c3)Oc3cc2cc(c3O[C@@H]2O[C@H](CO)[C@@H](O)[C@H](O)[C@H]2O[C@H]2C[C@](C)(N)[C@H](O)[C@H](C)O2)Oc2ccc(cc2Cl)[C@H]1O", "target": "D-Ala peptide", "test": "cantilever array", "system": "phosphate buffer", "setting": "10 nM", "endpoint": "differential cantilever bending", "result": "-9 ± 2 nm"}
{"Molecule": "COCC1=C(C(=O)O)N2C(=O)[C@@H](NC(=O)/C(=N\\OC)c3csc(N)n3)[C@H]2SC1", "target": "Neisseria gonorrhoeae PBP2 H041", "setting": "1 h, pH 8.0, room temperature, together with: Bocillin-FL competitor", "endpoint": "acylation rate constant k2/Ks", "result": "590 ± 90 M⁻¹ s⁻¹"}
{"Molecule": "CC(C)[C@@H]1NC(=O)c2coc(n2)-c2coc(n2)-c2coc(n2)C/C=C/c2coc(n2)-c2coc(n2)-c2coc1n2", "target": "salmon testes duplex DNA", "test": "UV melting", "setting": "15 µM, pH 7.5, together with: 50 mM K+", "how to read": "reference: DNA without compound", "endpoint": "melting temperature shift", "result": "0 °C"}
{"Molecule": "Clc1ccc(-c2cc(Cl)c(Cl)c(Cl)c2)c(Cl)c1", "target": "aequorin, Aequorea victoria", "test": "bioluminescence, inhibitor", "setting": "1.0×100 µM, together with: coelenterazine", "how to read": "reference: no inhibitor", "endpoint": "inhibition", "result": "36%"}
{"Molecule": "CC[C@H](C)[C@H](NC(=O)[C@H](Cc1ccc(O)cc1)NC(=O)[C@@H](NC(=O)[C@@H]1CCCN1C(=O)[C@H](CCCNC(=N)N)NC(=O)[C@H](CC(N)=O)NC(=O)[C@H](CC(N)=O)NC(=O)[C@H](CCCN)N=C(N(C)C)N(C)C)C(C)C)C(=O)N1CCC[C@H]1C(=O)N[C@@H](CCCNC(=N)N)C(=O)N1CCC[C@H]1C(=O)N[C@@H](CCCNC(=N)N)C(=O)N1CCC[C@H]1C(=O)N1CCC[C@H]1C(=O)N[C@@H](Cc1c[nH]cn1)C(=O)N1CCC[C@H]1C(=O)N[C@@H](CCCNC(=N)N)C(=O)N[C@@H](CC(C)C)C(=O)O", "target": "Escherichia coli BW25113 70S ribosome", "test": "fluorescence polarization", "setting": "90 min", "endpoint": "Kd", "result": "328 ± 72 nM"}
{"Molecule": "NC(=O)c1cc[n+](CC2=C(C(=O)O)N3C(=O)[C@@H](NC(=O)[C@@H](c4ccccc4)S(=O)(=O)[O-])[C@H]3SC2)cc1", "target": "Neisseria gonorrhoeae PBP2 H041", "setting": "1 h, pH 8.0, room temperature, together with: Bocillin-FL competitor", "endpoint": "acylation rate constant k2/Ks", "result": "0.8 ± 0.1 M⁻¹ s⁻¹"}
{"Molecule": "N#CCCC(Br)(C#N)CBr (stereo not shown)", "target": "cysteine peptide Ac-RFAACAA-COOH", "test": "DPRA RapidFire-MS/MS", "setting": "24 h, pH 7.5, together with: 5.0 µM cysteine peptide", "endpoint": "maximal peptide depletion", "result": "-102%"}
{"Molecule": "Suc-Ala-Ala-Pro-Phe-chloromethyl ketone", "target": "Schistosoma mansoni cercarial peptidases", "test": "peptide bond cleavage", "system": "Schistosoma mansoni, cercarial secretions", "setting": "500 nM, 30 min, pH 7.5", "endpoint": "inhibition", "result": "36%"}
{"Molecule": "O=C/C=C/c1ccccc1", "target": "cysteine peptide Ac-RFAACAA-COOH", "test": "DPRA RapidFire-MS/MS", "setting": "24 h, pH 7.5, together with: 5.0 µM cysteine peptide", "endpoint": "maximal peptide depletion", "result": "-124%"}
{"Molecule": "O=C1c2cc(COc3ccccc3)nn2CCN1c1ccc(F)cn1", "target": "mGlu1, 2, 4, 6, 7, 8 receptors", "setting": "selectivity screen", "endpoint": "EC50", "result": "> 10000 nM"}
{"Molecule": "C[C@H](NC(=O)Cc1cc(F)cc(F)c1)C(=O)N[C@H]1N=C(c2ccccc2)c2ccccc2N(C)C1=O", "target": "γ-secretase", "test": "inhibitor, microdialysis", "system": "J20 hAPP transgenic mice, 24 months, hippocampal interstitial fluid", "setting": "intraperitoneal, 3 mg/kg, first 3 h", "how to read": "reference: pre-injection level", "endpoint": "ISF Aβ38 reduction", "result": "~60%"}
{"note": "Repeated from above:"}
{"Molecule": "N#CCCC(Br)(C#N)CBr (stereo not shown)", "target": "cysteine peptide Ac-RFAACAA-COOH", "test": "DPRA RapidFire-MS/MS", "setting": "24 h, pH 7.5, together with: 5.0 µM cysteine peptide", "endpoint": "maximal peptide depletion", "result": "-102%"}
{"Molecule": "Suc-Ala-Ala-Pro-Phe-chloromethyl ketone", "target": "Schistosoma mansoni cercarial peptidases", "test": "peptide bond cleavage", "system": "Schistosoma mansoni, cercarial secretions", "setting": "500 nM, 30 min, pH 7.5", "endpoint": "inhibition", "result": "36%"}
